Measurements from different studies.
Protocols differ between the studies behind these lines. “And” joins repeats or separate records; there may be more than shown. Numbers after ± are the reported error.
SRC SH3-SH2-kinase domain: Proto-oncogene tyrosine-protein kinase Src, SH3-SH2-kinase domain (SRC, Gallus gallus, UniProt P00523)
Genome polyprotein NS3 helicase domain: Genome polyprotein, NS3 helicase domain (Hepatitis C virus genotype 1b, UniProt Q9WMX2)

O=C1NC(=O)/C(=C/c2ccc(C(=O)NC[C@@H]3C[C@@H](SC(c4ccccc4)(c4ccccc4)c4ccccc4)CN3C(=O)c3ccccc3C(=O)c3ccc(F)cc3F)cc2)S1  IC50 (PLA2G4A (Homo sapiens, UniProt P47712); enzyme activity, inhibitor, radiometric): 1.23 µM
Nc1ncnc2c1c(-c1ccc(Oc3ccccc3)cc1)nn2C1CCCC1  IC50 (Proto-oncogene tyrosine-protein kinase Src, autophosphorylated (SRC, Gallus gallus, UniProt P00523, Y527F); photo-crosslinking probe binding, competition with HT-1; mammalian cell lysate; activated kinase): 1.1 ± 0.5 µM
COC(=O)[C@H](CC(C)C)NC(=O)[C@@H]1CCCN1C(=O)[C@@H](NC(=O)[C@H](CCC(=O)C=[N+]=[N-])NC(=O)OCc1ccccc1)C(C)C  IC50 (Protein-glutamine gamma-glutamyltransferase E, isoform 3 (Homo sapiens, UniProt Q08188); inhibitor; relative to: TG2): increased
CN(C)CCNC(=O)c1cccc2c(NCCCCc3c(N)nc(N)nc3N)c3ccccc3nc12  IC50 (Muscleblind-like protein 1, with (CCUG)6 RNA (Homo sapiens, UniProt Q9NR56); MBNL1-RNA binding, gel mobility shift; no tRNA, added: 0.1 nM (CCUG)6 RNA, 350 nM MBNL1): 52 ± 8 µM
Cc1ccc(C[C@@H]2NC(=O)[C@H](Cc3ccccc3)NC(=O)[C@H](CC3CCCCC3)NC(=O)/C=C/C(=O)N[C@H](C(N)=O)CCCNC2=O)cc1  IC50 (SRC SH3-SH2-kinase domain; enzyme activity, inhibitor, Z'-LYTE FRET; Src residues 83-533, added: 50 µM ATP): 0.27 ± 0.04 µM
CC(=O)NC/C(=C\F)COc1cccc(Cn2c(=S)[nH]c(=O)c3[nH]cnc32)c1  IC50 (Myeloperoxidase (MPO, Homo sapiens, UniProt P05164); enzyme activity, inhibitor, fluorescence): 0.128 µM
COCCSc1nc(-c2cccs2)cc(-c2ccc(Cl)cc2)c1C#N  IC50 (KAT2A (Homo sapiens, UniProt Q92830); enzyme activity, inhibitor, radiometric): > 100 µM
S=c1[nH]nc(Cn2nnc3ccccc32)n1/N=C/c1ccco1  IC50 (Xanthine dehydrogenase/oxidase, oxidase form (XDH, Bos taurus, UniProt P80457); enzyme activity, inhibitor): ≤ 307 µM
CCC(CC)[C@H](NC(C)=O)[C@@H]1[C@H](O)[C@@H](C(=O)N[C@H](C(=O)O)[C@@H](C)CC)C[C@H]1NC(=N)N  IC50 (SLC15A1 (Homo sapiens, UniProt P46059); transporter uptake, inhibitor): 1780 µM
CCOC(=O)N1CCC(Oc2nc3c(c(=O)n(C)c(=O)n3C)n2Cc2cccc(C)c2)CC1  IC50 (HPGD (Homo sapiens, UniProt P15428)): > 57 µM
CNC(=S)Nc1cccc([N+](=O)[O-])c1  IC50 (Urea transporter 2 (Rattus norvegicus, UniProt Q62668); urea transport, inhibitor; MDCK expressing rat UT-A1; 20 min): 300 ± 200 µM
CC(C)NCc1ccc(C[C@@H]2NC(=O)[C@@H](Cc3c[nH]c4ccccc34)NC(=O)[C@H](Cc3ccccc3)NC(=O)[C@H](NC(=O)[C@@H](N)Cc3ccc(Cl)cc3)CSSC[C@@H](C(=O)N[C@@H](Cc3ccc4ccccc4c3)C(N)=O)NC(=O)[C@H](Cc3ccc(O)c(I)c3)NC2=O)cc1  IC50 (SSTR1 (Homo sapiens, UniProt P30872); ligand displacement, radioligand; cell membranes): > 1 µM
Cc1ccccc1-c1cc(N2CCN(CCCN3C(=O)C=CC3=O)CC2)ccc1N(C)C(=O)C(C)(C)c1cc(C(F)(F)F)cc(C(F)(F)F)c1  IC50 (TACR1 (Homo sapiens, UniProt P25103); IP1 accumulation, antagonist, HTRF; 90 min preincubation, added: substance P 10 nM): 0.209 µM
Cc1oc2nc[nH]c(=O)c2c1C(=O)N(C)CC12CC3CC(CC(C3)C1)C2  IC50 (Trypanothione synthetase (Trypanosoma brucei brucei, UniProt Q586P2); enzyme activity, BIOMOL Green phosphate release; 1 h preincubation): 1 µM and 1.2 µM
COc1ccc([C@@H]2CC(=O)c3c(O)cc(O[C@@H]4O[C@H](CO[C@@H]5O[C@@H](C)[C@H](O)[C@@H](O)[C@H]5O)[C@@H](O)[C@H](O)[C@H]4O)cc3O2)cc1  IC50 (SLCO1B1 (Homo sapiens, UniProt Q9Y6L6); 8-FcA uptake, inhibitor, flow cytometry; HEK293 expressing SLCO1B1; 10 min, added: 8-FcA 2.5 µM): > 100 µM
CCNC(=O)[C@@H]1CCNC(=O)[C@H](CCCNC(=O)c2cnccn2)NC(=O)[C@H](Cc2ccccc2)NC(=O)[C@H](CC2CCCCC2)NC(=O)/C=C\C(=O)N1  IC50 (SRC SH3-SH2-kinase domain; enzyme activity, inhibitor, Z'-LYTE FRET; Src residues 83-533, added: 50 µM ATP): ≤ 0.004 µM
O=C(Cn1nc(C(F)(F)F)c2c1CCCC2)N(Cc1ccccc1)Cc1ccccc1  IC50 (Trypanothione synthetase (Trypanosoma brucei, UniProt Q586P2); enzyme activity, inhibitor): > 100 µM
CN(C)C/C=C/C(=O)Nc1ccc2nc(NCCCCCN(C)C)nc(NCCCCCCN(C)C)c2c1  IC50 (CHD1, chromodomains (Homo sapiens, UniProt O14646)): 43 µM
CCC(NC(=O)C(CC(C)C)NC(=O)CCc1ccncc1)C(=O)C(=O)NCc1cc(OC)cc(OC)c1 (centres unmarked)  IC50 (Calpain-2 catalytic subunit (Capn2, Mus musculus, UniProt O08529); enzyme activity, inhibitor; mouse pons-cerebellum membranes; added: calcium 2 mM): 0.214 µM
O=S(=O)(Nc1cscn1)c1c(F)cc(NCc2c(F)ccc(F)c2CN2CCC2)cc1F  IC50 (SCN8A (Homo sapiens, UniProt Q9UQD0); tonic ion current block, inhibitor, patch clamp; held at V0.5, first pulse): 0.0376 µM
NC(=O)[C@@H]1CCCNC(=O)[C@H](Cc2ccc(Br)cc2)NC(=O)[C@H](Cc2ccccc2)NC(=O)[C@H](CC2CCCCC2)NC(=O)/C=C/C(=O)N1  IC50 (SRC SH3-SH2-kinase domain; enzyme activity, inhibitor, Z'-LYTE FRET; Src residues 83-533, added: 50 µM ATP): 0.03 ± 0.002 µM
CN1CCN(c2ccc(/C=C3\C(=O)Nc4ccc(-c5ccc(-c6ccc(O)cc6)cc5)cc43)cc2)CC1  IC50 (FGFR3 (Homo sapiens, UniProt P22607); enzyme activity, inhibitor): 4.86 µM
COc1ccc2c(c1)C(=C1Nc3ccccc3C1=NOCC(O)CO)C(=O)N2 (centres unmarked)  IC50 (HCK (Homo sapiens, UniProt P08631); enzyme activity, inhibitor, radiometric): 0.264 µM
O=C(Nc1cccc(C(=O)Nc2ccc(S(=O)(=O)O)c3cc(S(=O)(=O)O)cc(S(=O)(=O)O)c23)c1)Nc1cccc(C(=O)Nc2ccc(S(=O)(=O)O)c3cc(S(=O)(=O)O)cc(S(=O)(=O)O)c23)c1  IC50 (Genome polyprotein NS3 helicase domain; DNA binding, fluorescence polarization; added: Cy5-dT15 DNA 5 nM): 6.3 ± 0.6 µM
CCOC1=CC(=O)c2cc3c(cc2C1=O)CCCC3(C)C  IC50 (DNA topoisomerase IB (Leishmania donovani, UniProt A0A3Q8IHS4+Q8WQM6); DNA relaxation activity, inhibitor; added: supercoiled plasmid DNA): > 100 µM
CC[C@H](C)[C@H](NC(=O)[C@H](CC(N)=O)NC(=O)[C@@H](NC(=O)[C@H](Cc1ccccc1)NC(=O)[C@H](Cc1ccc(O)cc1)NC(=O)[C@@H](N)CCSC)[C@@H](C)CC)C(=O)N[C@@H](CC(C)C)C(=O)N[C@H](C(=O)N[C@@H](CC(C)C)C(=O)O)[C@@H](C)O  IC50 (N-formyl peptide receptor 2, deglycosylated (FPR2, Homo sapiens, UniProt P25090); binding; HEK293 glycosidase F treated; added: [3H]LXA4): ~0.01 µM
CC(=O)N[C@@H](CCCNC(=N)N)C(=O)NCCOCCOCC(=O)N[C@H](C)C(=O)N1CCC[C@H]1B(O)O  IC50 (FAP (Homo sapiens, UniProt Q12884); enzyme activity, inhibitor, western blot): ~0.09 µM
COC(=O)c1ccc(N2CCN(c3cc(C)nc(C)n3)CC2)cc1  IC50 (Phosphatidylinositol 3,4,5-trisphosphate 5-phosphatase 1, Ptase-C2 domains (INPP5D, Homo sapiens, UniProt Q92835); enzyme activity, inhibitor): 44 µM
Cc1ccc2nc(-c3ccc4nc(-c5ccc(NC(=O)c6ccc7ccccc7c6)cc5)sc4c3)sc2c1S(=O)(=O)O  IC50 (Genome polyprotein NS3 helicase domain; helicase activity, inhibitor, molecular beacon helicase): 2.7 ± 0.7 µM
Cc1cc([N+](=O)[O-])cn(CC(=O)c2cc3cc(Br)ccc3[nH]2)c1=O  IC50 (DNA repair protein RAD52 homolog, with RPA and ssDNA (RAD52, Homo sapiens, UniProt P43351); inhibitor, FRET): 0.76 ± 0.05 µM
NOCC(=O)O  IC50 (CTH (Homo sapiens, UniProt P32929); inhibitor, methylene blue; 60 min, 37 °C, added: L-cysteine 1 mM): 1.09 µM and 1.1 µM
COc1ccc(/C=C/C(=O)O[C@@H]2C[C@](C)(O)[C@H]3[C@H](O[C@@H]4O[C@H](CO)[C@@H](O)[C@H](O)[C@H]4O)OC=C[C@H]32)cc1  IC50 (XDH (Bos taurus, UniProt P80457); enzyme activity, inhibitor, absorbance): 46.7 µM
Cc1ccc2nc(-c3ccc4nc(-c5ccc6nc(-c7ccc8nc(-c9ccc(N)cc9)sc8c7)sc6c5)sc4c3)sc2c1S(=O)(=O)O  IC50 (Genome polyprotein NS3 helicase domain; ATPase activity, inhibitor, malachite green): 5 ± 3 µM
CC(C)(C)S(=O)(=O)Cc1nc(-c2ccc(C(F)(F)F)cc2)cs1  IC50 (Trypanothione synthetase (Trypanosoma brucei, UniProt Q586P2); enzyme activity, inhibitor): > 100 µM
CC(C)=CCN=C(N)NCCC[C@@H](NC(=O)CCCc1ccc(O)cc1)C(=O)N[C@@H](Cc1ccccc1)C(O)CC(=O)N[C@@H](Cc1ccc(O)cc1)C(=O)O (stereo in doubt)  IC50 (ACE (Homo sapiens, UniProt P12821); enzyme activity, inhibitor): > 100 µM

For quick reference, copied from above:
NOCC(=O)O  IC50 (CTH (Homo sapiens, UniProt P32929); inhibitor, methylene blue; 60 min, 37 °C, added: L-cysteine 1 mM): 1.09 µM and 1.1 µM
COc1ccc(/C=C/C(=O)O[C@@H]2C[C@](C)(O)[C@H]3[C@H](O[C@@H]4O[C@H](CO)[C@@H](O)[C@H](O)[C@H]4O)OC=C[C@H]32)cc1  IC50 (XDH (Bos taurus, UniProt P80457); enzyme activity, inhibitor, absorbance): 46.7 µM
Cc1ccc2nc(-c3ccc4nc(-c5ccc6nc(-c7ccc8nc(-c9ccc(N)cc9)sc8c7)sc6c5)sc4c3)sc2c1S(=O)(=O)O  IC50 (Genome polyprotein NS3 helicase domain; ATPase activity, inhibitor, malachite green): 5 ± 3 µM
